Results collected from several papers.
Each line is one published result; not all experiments were run side by side. Numbers after ± are the reported error.

Cc1nc(NC(=O)N2CCC[C@H]2C(N)=O)sc1-c1ccnc(C(C)(C)C(F)(F)F)c1 — IC50 (T47D; Akt phosphorylation, inhibitor, in-cell western, item: Akt pSer473; 2 h): 43.8 nM
CCOC(=O)c1nn(-c2ccccc2)c(C#N)c1NC(=O)c1nn(CC)cc1F — IC50 (human PBMC monocytes; phagocytosis of anti-D RBCs): > 100000 nM
C=CC(=O)NC1CCN(c2ncc3ncnc(Nc4ccc(Oc5ccc6c(c5)ncn6C)c(C)c4)c3n2)CC1 — IC50 (Ba/F3 expressing HER2 L755S; cell growth, inhibitor, CellTiter-Glo): 30.9 nM
C[C@H]1CN(C2COC2)CCN1c1ccc(Nc2cc(-c3ccnc(N4CCn5c(cc6c5CC(C)(C)C6)C4=O)c3CO)cn(C)c2=O)nc1 — IC50 (Ramos; calcium flux, FLIPR; 4 h preincubation): 2.94 nM
C[C@H]1Oc2cc(cnc2N)-c2c(nn(C)c2C#N)CN(C)C(=O)c2ccc(F)cc21 — IC50 (KARPAS-299 (NPM1-ALK); cell viability): 3.27 nM
C[C@]12CC[C@@H]3c4ccc(O)cc4C[C@@H](CCCCCCCCC[S+]([O-])CCCC(F)(F)C(F)(F)F)[C@H]3[C@@H]1CC[C@@H]2O (some centres unmarked) — IC50 (MCF7/luciferase, wild type; cell proliferation): 0.8 nM
CC(C)(C)c1cnc(CSc2cnc(NC(=O)C3CCN(C(=O)CCOCCN4Cc5cc6c(cc5C4)C(=O)N(C4CCC(=O)NC4=O)C6=O)CC3)s2)o1 (centres unmarked) — IC50 (TC-71; cell growth, MTT; 72 h): 8.9 ± 0.3 nM
Cc1cc(Nc2ncc(Cl)c(Nc3ccccc3S(=O)(=O)C(C)C)n2)c(OC(C)C)cc1C1CCNCC1 — IC50 (Ba/F3 EML4-ALK variant 1 E1210K; cell viability): 108 nM
COc1cc2c3c(n(CCCNC(C)C)c(=O)c2cc1OC)-c1nc2c(cc1C3=O)OCO2 — IC50 (TC-106 Ewing sarcoma cells; cytotoxicity, MTS; 72 h): 202 ± 5 nM
C=CC(=O)N1CCC[C@@H](n2nc(-c3ccc(Oc4ccccc4)cc3)c3c(N)ncnc32)C1 — IC50 (TMD8 RAC2 knockout; calcium flux, FLIPR; 2 h preincubation): 0.67 nM
C[C@@H]1CN(C(=O)c2ccc(NC(=O)c3cc(O[C@H](C)c4c(Cl)ccc(F)c4Cl)c(N)nn3)cc2)C[C@H](C)N1 — IC50 (KARPAS-299 (NPM1-ALK); cell viability): 10.5 nM
CCCCN1C[C@H](O)[C@@H](O)[C@@H](O)[C@H]1CO — IC50 (sample C patient fibroblasts; Gb3 level lowering, LC-MS/MS, item: Gb3 d18:1/20:0; 216 h): 6700 nM
CC1=CC(=O)C(C(C)C)=CC1=O — IC50 (HK-2; cell viability, CCK-8; 48 h): 58000 ± 4120 nM
CCC(=O)N1CCC(COCC(=O)N2CCN(c3nc(-c4cnc(N)nc4C(F)F)nc(N4CCOC[C@@H]4C)n3)CC2)CC1 — IC50 (SK-OV-3; western blot, item: phospho-PKB/Akt Ser473; 2 h): 45.9 nM
CCOC(=O)c1nn(-c2ccccc2)c(C#N)c1NC(=O)c1nn(CC)cc1Br — IC50 (human PBMC monocytes; phagocytosis of anti-D RBCs): 17700 ± 3400 nM
O=C(C[C@@H](C(F)F)n1ccc(F)n1)N1CCC(O)(Cn2cnc3c(cnn3-c3ccc(F)cc3)c2=O)CC1 — IC50 (CHP-212; cell viability, SRB; mean of replicates): 58.7 nM
O=C(Nc1nccs1)c1cnn(-c2ccccc2)c1-n1cccc1 — IC50 (human PBMC monocytes; phagocytosis of anti-D RBCs): 18400 ± 8500 nM
CC1(C)COc2ccc(F)cc2CN2c3nc4c(cnn4cc3OC[C@H]2C(F)F)C(=O)N1 — IC50 (NB1 (ALK amplification, exon 2-3 deletion); cell viability): 5.74 nM
C=CC(=O)N1CCC(C(=O)N(C)CC(=O)N2CCN(c3nc(-c4cnc(N)nc4C(F)F)nc(N4CCOCC4)n3)CC2)CC1 — IC50 (SK-OV-3; Akt phosphorylation, inhibitor, in-cell western, item: Akt pSer473): 85.1 nM
C=CC(=O)N1CCC([C@@H]2CCNc3c(C(N)=O)c(-c4ccc(Oc5ccccc5)cc4)nn32)CC1 — IC50 (TMD8 RAC2 knockout; calcium flux, FLIPR; 2 h preincubation): 1.6 nM
CC(C)C[C@H](NC(=O)[C@H](Cc1ccccc1)NC(=O)c1cnccn1)B(O)O — IC50 (MCAS; cell growth, CellTiter-Glo; ovary): 8.5 nM
C=CC(=O)Nc1cccc(Oc2nc(Nc3ccc(N4CCN(C)CC4)cc3)nc3ccoc23)c1 — IC50 (TMD8 RAC2 knockout; calcium flux, FLIPR; 2 h preincubation): 23 nM
C=CC(=O)N1CCC(COCC(=O)N2CCN(c3nc(-c4cnc(N)nc4C(F)F)nc(N4CCOC[C@@H]4C)n3)CC2)CC1 — IC50 (T47D; S6 phosphorylation, inhibitor, in-cell western, item: phospho-S6 Ser235/236; 2 h): 26.4 nM
CC(C)(C)c1cnc(CSc2cnc(NC(=O)C3CCN(C(=O)CCCCN4Cc5cc6c(cc5C4)C(=O)N(C4CCC(=O)NC4=O)C6=O)CC3)s2)o1 (centres unmarked) — IC50 (TC-71; cell growth, MTT; 72 h): 13 ± 2.3 nM
C[C@H](Nc1ccc2c(c1)OCCn1cc(N3C(=O)OC[C@H]3C(F)F)nc1-2)C(N)=O — IC50 (T47D; S6 phosphorylation, inhibitor, in-cell western, item: phospho-S6 Ser235/236; 2 h): 17.1 nM
COc1cc(N2CCC(N3CCN(C)CC3)CC2)ccc1Nc1ncc(Cl)c(Nc2ccccc2P(C)(C)=O)n1 — IC50 (NB1 (ALK amplification, exon 2-3 deletion); cell viability): 6.92 nM
CN(C)C(=O)c1cc2cnc(Nc3ccc(C(=O)NCCCCCCOc4cccc5c4C(=O)N(C4CCC(=O)NC4=O)C5=O)cc3)nc2n1C1CCCC1 (centres unmarked) — IC50 (MYCN-amplified neuroblastoma cell line panel; cytotoxicity, Alamar Blue; 72 h): 20.1 to 131 nM
CC(C)(C)c1cnc(CSc2cnc(NC(=O)C3CCN(C(=O)CCCCCCCCCCN4Cc5cc6c(cc5C4)C(=O)N(C4CCC(=O)NC4=O)C6=O)CC3)s2)o1 (centres unmarked) — IC50 (TC-71; cell growth, MTT; 72 h): 71.8 ± 2.2 nM
CC#CC(=O)N1CCC[C@H]1c1nc(-c2ccc(C(=O)Nc3ccccn3)cc2)c2c(N)nccn12 — IC50 (TMD8 RAC2 knockout; calcium flux, FLIPR; 2 h preincubation): 11 nM
CC(C)(C)Cn1c(N)nc2ccc(-c3[nH]c(C(C)(C)C)nc3-c3ccc(F)cc3)nc21 — IC50 (cell lines, cancer, EGFR-mutated; cell viability; median across lines): 3500 nM
C=CC(=O)N1CCC(CN(C)CC(=O)N2CCN(c3nc(-c4cnc(N)nc4C(F)F)nc(N4CCOCC4)n3)CC2)CC1 — IC50 (SK-OV-3; Akt phosphorylation, inhibitor, in-cell western, item: Akt pSer473): 38 nM
Cc1cc(N2CCc3c(c(C)nn3CC34CCC(NC(=O)[C@@H]5COCCN5)(CC3)CC4)C2)c2cnn(C)c2n1 — IC50 (human PBMC; IFN-driven gene expression, inhibitor, qRT-PCR, item: OASL mRNA; two donors, added: ssRNA): 1.1 ± 0.2 nM
